Results collected from several papers.
A part holds a random share of what one study measured.
UniProt P10721, sequence (whole entry, unmodified, looked up): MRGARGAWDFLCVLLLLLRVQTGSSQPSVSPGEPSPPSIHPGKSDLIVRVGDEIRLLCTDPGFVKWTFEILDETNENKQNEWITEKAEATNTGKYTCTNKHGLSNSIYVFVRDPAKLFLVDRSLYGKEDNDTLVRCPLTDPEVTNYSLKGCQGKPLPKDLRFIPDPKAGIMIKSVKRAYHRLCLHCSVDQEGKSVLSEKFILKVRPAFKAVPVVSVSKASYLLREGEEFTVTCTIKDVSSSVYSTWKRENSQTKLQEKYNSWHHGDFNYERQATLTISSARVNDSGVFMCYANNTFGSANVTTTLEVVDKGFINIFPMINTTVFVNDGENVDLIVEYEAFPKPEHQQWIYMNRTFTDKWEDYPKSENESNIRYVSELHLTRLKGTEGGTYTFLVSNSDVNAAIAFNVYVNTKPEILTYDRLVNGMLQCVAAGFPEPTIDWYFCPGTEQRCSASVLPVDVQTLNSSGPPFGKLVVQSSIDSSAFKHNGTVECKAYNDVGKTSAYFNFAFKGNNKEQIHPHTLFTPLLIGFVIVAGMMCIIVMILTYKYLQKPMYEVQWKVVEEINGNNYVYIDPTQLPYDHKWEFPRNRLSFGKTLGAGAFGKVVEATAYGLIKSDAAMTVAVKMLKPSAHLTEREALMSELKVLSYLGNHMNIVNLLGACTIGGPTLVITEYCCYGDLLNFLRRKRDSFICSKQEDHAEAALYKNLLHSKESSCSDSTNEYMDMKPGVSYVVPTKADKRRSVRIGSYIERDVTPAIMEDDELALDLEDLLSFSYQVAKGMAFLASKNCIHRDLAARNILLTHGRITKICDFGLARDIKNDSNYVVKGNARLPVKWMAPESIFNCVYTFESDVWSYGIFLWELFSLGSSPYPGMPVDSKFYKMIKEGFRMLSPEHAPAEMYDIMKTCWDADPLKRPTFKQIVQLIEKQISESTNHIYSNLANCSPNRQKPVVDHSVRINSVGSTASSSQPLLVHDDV
UniProt P09769, sequence (whole entry, looked up): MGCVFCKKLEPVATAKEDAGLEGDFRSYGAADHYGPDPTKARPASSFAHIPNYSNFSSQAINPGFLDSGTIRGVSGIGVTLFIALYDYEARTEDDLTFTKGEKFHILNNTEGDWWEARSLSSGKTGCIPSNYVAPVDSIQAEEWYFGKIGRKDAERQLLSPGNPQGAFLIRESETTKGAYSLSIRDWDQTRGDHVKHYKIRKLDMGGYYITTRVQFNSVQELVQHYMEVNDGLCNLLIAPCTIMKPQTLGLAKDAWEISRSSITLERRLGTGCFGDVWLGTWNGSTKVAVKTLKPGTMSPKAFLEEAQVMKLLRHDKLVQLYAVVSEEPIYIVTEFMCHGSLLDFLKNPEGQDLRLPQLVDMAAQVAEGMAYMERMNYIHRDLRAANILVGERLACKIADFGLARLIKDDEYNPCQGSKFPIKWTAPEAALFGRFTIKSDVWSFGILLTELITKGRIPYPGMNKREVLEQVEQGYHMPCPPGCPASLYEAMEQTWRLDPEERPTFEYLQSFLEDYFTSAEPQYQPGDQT
UniProt O75914, sequence (whole entry, looked up): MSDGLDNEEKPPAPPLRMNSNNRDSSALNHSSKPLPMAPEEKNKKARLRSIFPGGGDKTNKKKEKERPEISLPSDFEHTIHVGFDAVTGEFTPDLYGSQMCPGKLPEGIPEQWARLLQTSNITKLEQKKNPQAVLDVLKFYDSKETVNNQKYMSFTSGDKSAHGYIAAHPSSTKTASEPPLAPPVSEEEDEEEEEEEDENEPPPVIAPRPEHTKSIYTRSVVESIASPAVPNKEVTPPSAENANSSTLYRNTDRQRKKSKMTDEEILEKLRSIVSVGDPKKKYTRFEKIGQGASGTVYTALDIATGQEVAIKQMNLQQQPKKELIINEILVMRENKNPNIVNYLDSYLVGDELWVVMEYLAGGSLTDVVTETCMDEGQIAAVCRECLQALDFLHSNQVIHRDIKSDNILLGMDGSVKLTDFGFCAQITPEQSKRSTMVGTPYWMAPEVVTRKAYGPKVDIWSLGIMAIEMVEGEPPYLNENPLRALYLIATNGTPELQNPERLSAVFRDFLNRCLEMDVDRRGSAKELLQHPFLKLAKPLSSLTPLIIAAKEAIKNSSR
UniProt O43353, sequence (whole entry, looked up): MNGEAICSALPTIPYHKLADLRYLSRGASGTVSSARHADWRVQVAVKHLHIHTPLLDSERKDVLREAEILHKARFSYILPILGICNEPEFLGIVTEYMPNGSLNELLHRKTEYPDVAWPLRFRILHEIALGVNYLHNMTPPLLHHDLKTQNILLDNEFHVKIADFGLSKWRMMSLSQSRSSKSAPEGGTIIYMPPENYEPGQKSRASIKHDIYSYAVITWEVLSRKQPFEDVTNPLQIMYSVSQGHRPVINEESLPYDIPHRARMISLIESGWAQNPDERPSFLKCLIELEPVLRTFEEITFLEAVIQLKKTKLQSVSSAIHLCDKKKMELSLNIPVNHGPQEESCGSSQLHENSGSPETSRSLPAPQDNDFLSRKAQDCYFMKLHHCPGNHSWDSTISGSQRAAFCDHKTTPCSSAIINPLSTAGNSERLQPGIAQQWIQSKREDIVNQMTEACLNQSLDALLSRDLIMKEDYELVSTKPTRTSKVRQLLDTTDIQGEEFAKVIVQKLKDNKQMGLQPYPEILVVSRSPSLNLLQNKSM
UniProt P30989, sequence (whole entry, looked up): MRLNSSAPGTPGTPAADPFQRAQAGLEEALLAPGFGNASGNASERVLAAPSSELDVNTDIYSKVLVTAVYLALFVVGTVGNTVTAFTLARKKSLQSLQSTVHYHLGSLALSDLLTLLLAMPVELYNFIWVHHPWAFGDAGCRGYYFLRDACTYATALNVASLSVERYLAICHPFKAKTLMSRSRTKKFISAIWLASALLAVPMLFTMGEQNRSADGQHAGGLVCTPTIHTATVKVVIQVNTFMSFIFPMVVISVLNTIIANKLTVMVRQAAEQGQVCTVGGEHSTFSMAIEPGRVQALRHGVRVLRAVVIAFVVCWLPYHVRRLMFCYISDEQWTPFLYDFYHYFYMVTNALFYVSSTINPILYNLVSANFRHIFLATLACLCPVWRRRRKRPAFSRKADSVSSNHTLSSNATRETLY
UniProt P42336, sequence (whole entry, unmodified, looked up): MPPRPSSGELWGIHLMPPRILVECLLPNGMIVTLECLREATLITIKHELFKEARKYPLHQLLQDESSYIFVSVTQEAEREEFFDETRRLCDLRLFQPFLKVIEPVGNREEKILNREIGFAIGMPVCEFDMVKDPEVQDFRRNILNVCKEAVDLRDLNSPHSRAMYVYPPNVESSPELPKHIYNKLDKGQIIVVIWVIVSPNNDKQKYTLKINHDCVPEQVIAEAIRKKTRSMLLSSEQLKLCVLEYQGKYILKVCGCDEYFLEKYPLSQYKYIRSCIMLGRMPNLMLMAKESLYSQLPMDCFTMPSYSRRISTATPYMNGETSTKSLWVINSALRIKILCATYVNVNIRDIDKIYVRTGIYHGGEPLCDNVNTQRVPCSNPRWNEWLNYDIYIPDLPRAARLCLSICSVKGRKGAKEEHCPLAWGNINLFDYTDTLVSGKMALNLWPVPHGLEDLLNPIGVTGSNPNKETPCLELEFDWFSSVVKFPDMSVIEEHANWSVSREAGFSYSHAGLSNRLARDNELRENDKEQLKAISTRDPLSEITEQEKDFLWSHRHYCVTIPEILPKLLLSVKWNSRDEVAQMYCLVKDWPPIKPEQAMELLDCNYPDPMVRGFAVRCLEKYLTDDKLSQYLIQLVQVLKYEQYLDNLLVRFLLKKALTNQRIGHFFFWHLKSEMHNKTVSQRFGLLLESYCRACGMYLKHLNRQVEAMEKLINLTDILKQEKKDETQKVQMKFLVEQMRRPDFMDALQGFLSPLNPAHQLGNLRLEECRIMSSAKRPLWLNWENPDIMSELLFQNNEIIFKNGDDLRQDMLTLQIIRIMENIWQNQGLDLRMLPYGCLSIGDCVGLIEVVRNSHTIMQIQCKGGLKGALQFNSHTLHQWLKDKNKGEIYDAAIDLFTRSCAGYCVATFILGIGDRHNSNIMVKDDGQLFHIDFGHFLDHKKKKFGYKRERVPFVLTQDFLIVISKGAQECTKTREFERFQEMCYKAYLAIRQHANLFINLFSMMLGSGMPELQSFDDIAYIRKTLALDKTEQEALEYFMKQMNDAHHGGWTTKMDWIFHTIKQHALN

Sample 1
Target: Ribosomal protein S6 kinase alpha-6 (RPS6KA6, Homo sapiens, UniProt Q9UK32)
UniProt Q9UK32, sequence (whole entry, looked up): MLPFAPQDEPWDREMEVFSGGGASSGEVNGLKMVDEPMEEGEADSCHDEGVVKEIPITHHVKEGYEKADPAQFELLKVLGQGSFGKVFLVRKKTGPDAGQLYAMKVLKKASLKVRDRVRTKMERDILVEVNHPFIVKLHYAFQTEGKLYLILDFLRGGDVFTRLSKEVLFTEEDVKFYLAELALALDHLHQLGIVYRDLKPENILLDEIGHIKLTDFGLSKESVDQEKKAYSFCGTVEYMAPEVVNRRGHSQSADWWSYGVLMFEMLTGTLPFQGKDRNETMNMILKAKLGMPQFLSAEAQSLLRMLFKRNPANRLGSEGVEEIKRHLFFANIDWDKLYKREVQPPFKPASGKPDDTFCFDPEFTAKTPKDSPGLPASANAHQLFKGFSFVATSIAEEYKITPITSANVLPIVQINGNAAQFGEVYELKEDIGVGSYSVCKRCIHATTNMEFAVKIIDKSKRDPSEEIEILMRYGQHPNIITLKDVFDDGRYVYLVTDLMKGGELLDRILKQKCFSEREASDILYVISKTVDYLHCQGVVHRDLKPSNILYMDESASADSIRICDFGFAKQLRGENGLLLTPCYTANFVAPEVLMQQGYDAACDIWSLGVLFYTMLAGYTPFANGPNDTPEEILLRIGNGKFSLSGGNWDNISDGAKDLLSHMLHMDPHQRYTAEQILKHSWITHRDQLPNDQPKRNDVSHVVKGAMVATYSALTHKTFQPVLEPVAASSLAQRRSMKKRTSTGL
Effect on: enzyme activity
Action: inhibitor
Concentration: 0.5 µM
Relative to: control
| SMILES | remaining activity [%] |
| --- | --- |
| c1ccc(-c2[nH]ncc2-c2ccnc3ccccc23)nc1 | 112 |
| Ic1cccc(CSc2nnc(-c3ccncc3)o2)c1 | 103 |
| Nc1cccc(-c2cc3c(Oc4cccc(O)c4)ncnc3[nH]2)c1 | 95.4 |
| c1ccc(-c2cnc(Nc3ccc(OCCN4CCCC4)cc3)s2)cc1 | 94.5 |
| N#Cc1c(NC(=O)c2cccc3ccccc23)sc2c1CCCC2 | 101 |
| Cc1nc2cc3nc(-c4cccs4)cnc3cc2n1C | 88.5 |
| COc1cc2ncnc(Nc3ccc(O)c(Br)c3)c2cc1OC | 57.8 |
| O=C1C(Cl)=C(N2C(=O)CCC2=O)C(=O)c2ccccc21 | 99.9 |
| Cc1cn(-c2cc(NC(=O)c3ccc(C)c(Nc4nccc(-c5cccnc5)n4)c3)cc(C(F)(F)F)c2)cn1 | 99 |
| CCOc1nc(NC(=O)Cc2cc(OC)ccc2OC)cc(N)c1C#N | 94.3 |
| O=C(Nc1cccc(Nc2nccc(Nc3cccc(C(F)(F)F)c3)n2)c1)C1CC1 | 89.5 |
| Cn1nc2c3c(cccc31)C(=O)c1ccccc1-2 | 90.4 |
| O=C1c2ccccc2-c2n[nH]c3cccc1c23 | 88.2 |
| CCN(CC)C(=O)c1ccc(Nc2nc(OCC3CCCCC3)c3[nH]cnc3n2)cc1 | 46.2 |
| CN([C@@H](Cc1ccc(OS(=O)(=O)c2cccc3cnccc23)cc1)C(=O)N1CCN(c2ccccc2)CC1)S(=O)(=O)c1cccc2cnccc12 | 100 |
| Cc1cc2ncc(-c3ccccc3)nc2cc1C | 98.2 |
| COc1cc2c(cc1OC)-c1[nH]nc(Nc3cccc(F)c3)c1C2 | 93.6 |
| N#C/C(=C\c1ccc(O)c(O)c1)C(=O)NCc1ccccc1 | 108 |
| O=c1cc(-c2cccc3c2Sc2ccccc2S3)oc(N2CCOCC2)c1 | 98.2 |
| CN(C)C[C@H]1CCn2c(c(C3=C(c4cn(C)c5ccccc45)C(=O)NC3=O)c3ccccc32)C1 | 2.94 |
| O=C(NC(NC(=S)Nc1ccc(F)c([N+](=O)[O-])c1)C(Cl)(Cl)Cl)C(c1ccccc1)c1ccccc1 (stereo not drawn) | 94.7 |
| CCN(CC)CCNC(=O)c1c(C)[nH]c(/C=C2\C(=O)Nc3ccc(Cl)cc32)c1C | 10.5 |
| COc1cc2ncnc(Nc3cccc(Cl)c3)c2cc1OC | 90.5 |

Sample 2
Method: PRP chromatography estimate
Medium: 1,9-decadiene/PBS
pH: 7.4
| Compound | logD |
| --- | --- |
| CC(C)C[C@@H]1NC(=O)[C@H](CC(C)C)NC(=O)[C@@H](C(C)C)NC(=O)[C@H](C(C)C)NC(=O)[C@@H](Cc2cscn2)NC(=O)[C@H](Cc2cscn2)NC(=O)[C@H](CCC(=O)N2CCCC2)NC1=O | -1.81 |
| CC(C)C[C@@H]1NC(=O)[C@H](CC(C)C)NC(=O)[C@@H](CC(C)C)NC(=O)[C@H](C)NC(=O)[C@H](C)NC(=O)[C@@H](CC(C)C)NC(=O)[C@H](C)NC1=O | -1.76 |
| CC(C)C[C@@H]1NC(=O)[C@H](C(C)C)NC(=O)[C@H](Cc2cscn2)NC(=O)[C@H](CC(C)C)NC(=O)[C@@H](CCC(=O)N2CCCC2)NC(=O)[C@H](CC(C)C)NC(=O)[C@@H](CC(C)C)NC1=O | -0.566 |
| CC(C)C[C@@H]1NC(=O)[C@H](CC(C)C)NC(=O)[C@@H](C(C)C)NC(=O)[C@H](C)NC(=O)[C@@H](Cc2cscn2)NC(=O)[C@@H](CC(C)C)NC(=O)[C@H](C)NC1=O | -1.77 |
| CC(C)C[C@@H]1NC(=O)[C@H](CC(C)C)NC(=O)[C@H](CC(C)C)NC(=O)[C@H](CC(C)C)NC(=O)[C@H](C(C)C)NC(=O)[C@H](Cc2cscn2)NC(=O)[C@H](C)NC1=O | -0.108 |
| CC(C)C[C@@H]1NC(=O)[C@H](C(C)C)NC(=O)[C@H](CCC(=O)N2CCCC2)NC(=O)[C@H](CCC(=O)N2CCCC2)NC(=O)[C@@H](CCC(=O)N2CCCC2)NC(=O)[C@H](CC(C)C)NC(=O)[C@@H](CC(C)C)NC1=O | -2.19 |
| CC(C)C[C@@H]1NC(=O)[C@H](CC(C)C)NC(=O)[C@@H](C(C)C)NC(=O)[C@H](C(C)C)NC(=O)[C@@H](Cc2cscn2)NC(=O)[C@H](C)NC(=O)[C@H](CCC(=O)N2CCCC2)NC1=O | -2.62 |
| CC(C)C[C@@H]1NC(=O)[C@H](CC(C)C)NC(=O)[C@@H](CC(C)C)NC(=O)[C@@H](C(C)C)NC(=O)[C@H](C(C)C)NC(=O)[C@H](CC(C)C)NC(=O)[C@@H](CC(C)C)NC1=O | 2.04 |
| CC(C)C[C@@H]1NC(=O)[C@H](C(C)C)NC(=O)[C@H](CC(C)C)NC(=O)[C@@H](CC(C)C)NC(=O)[C@H](CC(C)C)NC(=O)[C@@H](C)NC(=O)[C@@H](CC(C)C)NC1=O | 0.769 |
| CC(C)C[C@@H]1NC(=O)[C@H](CC(C)C)NC(=O)[C@@H](CC(C)C)NC(=O)[C@@H](C)NC(=O)[C@H](C)NC(=O)[C@H](Cc2cscn2)NC(=O)[C@H](CCC(=O)N2CCCC2)NC1=O | -2.88 |

Sample 3
Compound: C[C@@H](c1cccc(C#N)c1)n1cc(Cl)cc(C(N)=O)c1=N
Effect on: cell-free assay
Method: competition with immobilised ligand
Concentration: 1 µM
| target | remaining binding [%] |
| --- | --- |
| Phosphatidylinositol 4,5-bisphosphate 3-kinase catalytic subunit alpha isoform (PIK3CA, Homo sapiens, UniProt P42336, E545A) | 98 |
| Mast/stem cell growth factor receptor Kit (KIT, Homo sapiens, UniProt P10721, L576P) | 86 |
| Serine/threonine-protein kinase PAK 3 (PAK3, Homo sapiens, UniProt O75914) | 94 |
| Receptor-interacting serine/threonine-protein kinase 2 (RIPK2, Homo sapiens, UniProt O43353) | 88 |
| Tyrosine-protein kinase Fgr (FGR, Homo sapiens, UniProt P09769) | 87 |
| Wee1-like protein kinase 2 (WEE2, Homo sapiens, UniProt P0C1S8) | 77 |
| Mast/stem cell growth factor receptor Kit, autoinhibited (KIT, Homo sapiens, UniProt P10721) | 78 |
| Tyrosine-protein kinase ABL1, phosphorylated (ABL1, Homo sapiens, UniProt P00519, F317L) | 0 |
| Tyrosine-protein kinase ABL1, non-phosphorylated (ABL1, Homo sapiens, UniProt P00519, Q252H) | 68 |
| 3-phosphoinositide-dependent protein kinase 1 (PDPK1, Homo sapiens, UniProt O15530) | 100 |

Sample 4
SMILES: N=C(N)NC(=O)c1cnn(-c2cccc3ncccc23)c1C1CC1
Effect on: β-arrestin recruitment
Action: agonist
Method: PRESTO-Tango
Concentration: 10 µM
Relative to: untreated
| target | fold over basal |
| --- | --- |
| Neurotensin receptor type 1 (NTSR1, Homo sapiens, UniProt P30989) | 1 |
| Probable G-protein coupled receptor 173 (GPR173, Homo sapiens, UniProt Q9NS66) | 1.31 |
| Relaxin receptor 2 (RXFP2, Homo sapiens, UniProt Q8WXD0) | 1.04 |
| Gastrin-releasing peptide receptor (GRPR, Homo sapiens, UniProt P30550) | 0.88 fold |
| Gastric inhibitory polypeptide receptor (GIPR, Homo sapiens, UniProt P48546) | 0.89 fold |
| Glucagon receptor (GCGR, Homo sapiens, UniProt P47871) | 0.98 fold |
| Cholecystokinin receptor type A (CCKAR, Homo sapiens, UniProt P32238) | 1.17 |
| Adhesion G protein-coupled receptor F5 (ADGRF5, Homo sapiens, UniProt Q8IZF2) | 1.29 |

Some of these lines once more (sample 3):
| target | remaining binding [%] |
| --- | --- |
| Mast/stem cell growth factor receptor Kit (KIT, Homo sapiens, UniProt P10721, L576P) | 86 |
| Serine/threonine-protein kinase PAK 3 (PAK3, Homo sapiens, UniProt O75914) | 94 |
| Receptor-interacting serine/threonine-protein kinase 2 (RIPK2, Homo sapiens, UniProt O43353) | 88 |
